Published values pooled from the literature.
Values joined by “and” are separate records of one study, mostly repeats; a detail may differ.
Method: steady-state kinetics
B1: aspC A106G/A17N/A218G/A278L/A281T/A8Q/D18E/F210I/F212I/F350Y/G15S/G249S/I187A/I279A/I29V/I33V/I341V/I5L/I68L/I71L/L46M/M321L/M380L/N285S/N30D/N64T/S129T/S135A/S273G/S351L/T100S/V125I/V136I/V375I/Y244C (Escherichia coli, UniProt P00509); chain MFENLTAQPADPILSLNELFRADERPGKVDLGVGVYKDETGKTPVMTSVKKAEQYLLENETTKTYLGLDGLPEFGRCTQELLFGKGSALINDKRARTAQSPGGTGGLRVAADFLAKNTSVKRVWISNPTWPNHKAIFNSAGLEVREYAYYDAENHTLDFDALINSLNEAQAGDVVLFHGCCHNPTGADPTLEQWQTLAQLSVEKGWLPLIDIAYQGFGRGLEEDAEGLRAFAAMHKELIVASSCSKNFSLYNERVGACTLVAADSETVDRAFGQMKALARTNYSSPPAHGASVVATILSNDALRAIWEQELTDMRQRIQRLRQLFVNTLQEKGANRDFSFVIKQNGMFSYLGLTKEQVLRLREEFGVYAVASGRINVAGLTPDNMAPLCEAIVAVL
B2: SCO6712 S292F/Y229F (Streptomyces coelicolor, UniProt Q9XAL8); chain AKGITARTAPAGGEVRHLKMYAEKLADGQMGYGFEKGKASVPGPLIEVNEGDTLHIEFTNTMDVRASLHVHGLDYEISSDGTAMNKSDVEPGGTRTYTWRTHKPGRRDDGTWRPGSAGYWHYHDHVVGTEHGTGGIRNGLYGPVIVRRKGDVLPDATHTIVFNDMTINNRKPHTGPDFEATVGDRVEIVMITHGEFYHTFHMHGHRWADNRTGILTGPDDPSRVIDNKITGPADSFGFQIIAGEGVGAGAWMYHCHVQFHSDMGMVGLFLVKKPDGTIPGYEPHEHGGATAKSGESGEPTGGAAAHEHEH
B3: enzyme (Pediococcus pentosaceus, UniProt A0AB73HHR8); chain MKNYTDYFFDEQAFDLHDGGYVPLEVSDAPEKPLNVPPLLKPDKETATDVYYTVTAEAGETQLLPGAKTKTWGYNTSLLGQTIVYRRGQHTHVTLKNTLPELTTFHWHGANVSGPYVDGGCHAPVYPGESKHIDFTLEQPATTLWLHAHPCPSTAEQVWHGLAAMVIVKDDHEASLPLPRNYGVDDIPVILQDRRFHENNQWDYRADYDPDGVAGPTAMINGTINPYFDVTTQKVRLRFLDGANRREWRLHFSDDLPFTQIGGDGSLLPEPVKFTHLMLTCAERAEVIVDFGQYHEGDEVTLYTDDVPLLKFRIHAFKPDQTTLPDKLFDVKAPVVDPALPVRHVVMQGMDEGVAIDGKKFAMQRIDATQPIGKAQYWDVTNSNDAPGMVHPFHVHGTQFLVLSRNGHAPYPNEHGFKDTIGVNPGETVRLLVRFDLPGVYMYHCHIIEHEDGGMMAQIETFDPAKPKQEYKLMDMDTLMMALAKERGVKPSEIWMGGMQSYEKMGMKM
B4: proA (Escherichia coli, UniProt P07004); chain MLEQMGIAAKQASYKLAQLSSREKNRVLEKIADELEAQSEIILNANAQDVADARANGLSEAMLDRLALTPARLKGIADDVRQVCNLADPVGQVIDGGVLDSGLRLERRRVPLGVIGVIYEARPNVTVDVASLCLKTGNAVILRGGKETCRTNAATVAVIQDALKSCGLPAGAVQAIDNPDRALVSEMLRMDKYIDMLIPRGGAGLHKLCREQSTIPVITGGIGVCHIYVDESVEIAEALKVIVNAKTQRPSTCNTVETLLVNKNIADSFLPALSKQMAESGVTLHADAAALAQLQAGPAKVVAVKAEEYDDEFLSLDLNVKIVSDLDDAIAHIREHGTQHSDAILTRDMRNAQRFVNEVDSSAVYVNASTRFTDGGQFGLGAEVAVSTQKLHARGPMGLEALTTYKWIGIGDYTIRA
B5: enzyme (Paenibacillus xylanivorans, UniProt A0A0N0UI50); chain MTIFQFPQDFRWGTATASYQIEGAAQEGGRGVSIWDTFARTPGKVFNGDNGDVACDSYHRYEEDIELMKKLGINTYRFSIAWPRIIPDGDGEINREGLDFYHRFVDKLLEAGIEPFCTLYHWDLPQTLEDIGGWGNRRTVDAFVKYAEVIFKEFSGKINFWLTFNEPWCIAFLSNLLGIHAPGNKDLQTSINVAHGLLVAHGKAVQSFRRLGTTGQIGIAPNVCWAEPYSKSPEDRAACDRAIALNTDWFLDPIYKGSYPQFMVDWFEKAGATVPIQEGDMEIISQPIDLLGINYYTMGINRFNPEAGALQSEEVDMGLIKTDIGWPVESRGLYEFMHYLQKYGNVDVYITENGACINDDLENGKINDDRRIAYYEQHLAQIHRIINDGINLKGYMAWSLMDNFEWAEGYRMRFGLVHVDYRSLVRTPKESFYWYQNVIKNNWLETRI
B6: ST3GAL1 K315T (Sus scrofa, UniProt Q02745); chain ELSENFKKLMKYPYRPCTCTRCIEEQRVSAWFDERFNRSMQPLLTAKNAHLEEDTYKWWLRLQREKQPNNLNDTIRELFQVVPGNVDPLLEKRLVSCRRCAVVGNSGNLKESYYGPQIDSHDFVLRMNKAPTEGFEADVGSKTTHHFVYPESFRELAQEVSMILVPFKTTDLEWVISATTTGRISHTYVPVPAKIKVKKEKILIYHPAFIKYVFDRWLQGHGRYPSTGILSVIFSLHICDEVDLYGFGADSKGNWHHYWENNPSAGAFRTTGVHDGDFESNVTTILASINKIRIFKGR
B7: enzyme (Arabidopsis thaliana, UniProt Q9C969); chain GSFGMLSRRTLGTDMPVMAQIRSLMAELTNPMSLAQGVVHWQPPQKALEKVKELVWDPIISSYGPDEGLPELRQALLKKLREENKLTNSQVMVTAGANQAFVNLVITLCDAGDSVVMFEPYYFNSYMAFQMTGVTNIIVGPGQSDTLYPDADWLERTLSESKPTPKVVTVVNPGNPSGTYVPEPLLKRIAQICKDAGCWLIVDNTYEYFMYDGLKHCCVEGDHIVNVFSFSKTYGMMGWRLGYIAYSERLDGFATELVKIQDNIPICAAIISQRLAVYALEEGSGWITERVKSLVKNRDIVKEALEPLGKENVKGGEGAIYLWAKLPEGHRDDFKVVRWLAHRHGVVVIPGCASGSPGYLRVSFGGLQEVEMRAAAARLRKGIEELLHHGMVE
B8: enzyme (Treponema denticola, UniProt Q73LY9); chain QTNGTMPKRKFVIAFHASVNTDKTGKNLIKELPDLQKRGINTLFLEIGYNYQWKSDPKLYNKYVLSETVAREIAAECRRLSIDLIPEINCLGHQSWENETFALLKAYPELDETPGLYPSNKDIYCRSLCSSNEKVYTILFGLIDEITEVFSVKKIHVGLDEVFLIGEDACPLCRGKDKAELFAGAVNRLYDHCVKKRGFTMYMWGDRLIDSEDEDSGYKGEYESSCNGTYPAVDLIPKDIIICDWHYDELERYGSIPYFLNKGFRVLPTSFKGIKAVNALIDYSLLYKDNPAMLGHMYTAWDNFTNKNLSRYKPMVKTIDKLKAGN
B9: UGT1A6 (Homo sapiens, UniProt P19224); chain DKLLVVPQDGSHWLSMKDIVEVLSDRGHEIVVVVPEVNLLLKESKYYTRKIYPVPYDQEELKNRYQSFGNNHFAERSFLTAPQTEYRNNMIVIGLYFINCQSLLQDRDTLNFFKESKFDALFTDPALPCGVILAEYLGLPSVYLFRGFPCSLEHTFSRSPDPVSYIPRCYTKFSDHMTFSQRVANFLVNLLEPYLFYCLFSKYEELASAVLKRDVDIITLYQKVSVWLLRYDFVLEYPRPVMPNMVFIGGINCKKRKDLSQEFEAYINASGEHGIVVFSLGSMVSEIPEKKAMAIADALGKIPQTVLWRYTGTRPSNLANNTILVKWLPQNDLLGHPMTRAFITHAGSHGVYESICNGVPMVMMPLFGDQMDNAKRMETKGAGVTLNVLEMTSEDLENALKAVINDKSYKENIMRLSSLHKDRPVEPLDLAVFWVEFVMRHKGAPHLRPAAHDLTWYQYHSLDVIGFLLAVVLTVAFITFKCCAYGYRKCLGKKGRVKKAHKSKTH
B10: GRHPR (Homo sapiens, UniProt Q9UBQ7); chain MRPVRLMKVFVTRRIPAEGRVALARAADCEVEQWDSDEPIPAKELERGVAGAHGLLCLLSDHVDKRILDAAGANLKVISTMSVGIDHLALDEIKKRGIRVGYTPDVLTDTTAELAVSLLLTTCRRLPEAIEEVKNGGWTSWKPLWLCGYGLTQSTVGIIGLGRIGQAIARRLKPFGVQRFLYTGRQPRPEEAAEFQAEFVSTPELAAQSDFIVVACSLTPATEGLCNKDFFQKMKETAVFINISRGDVVNQDDLYQALASGKIAAAGLDVTSPEPLPTNHPLLTLKNCVILPHIGSATHRTRNTMSLLAANNLLAGLRGEPMPSELKL
UniProt O31662, sequence (whole entry, looked up): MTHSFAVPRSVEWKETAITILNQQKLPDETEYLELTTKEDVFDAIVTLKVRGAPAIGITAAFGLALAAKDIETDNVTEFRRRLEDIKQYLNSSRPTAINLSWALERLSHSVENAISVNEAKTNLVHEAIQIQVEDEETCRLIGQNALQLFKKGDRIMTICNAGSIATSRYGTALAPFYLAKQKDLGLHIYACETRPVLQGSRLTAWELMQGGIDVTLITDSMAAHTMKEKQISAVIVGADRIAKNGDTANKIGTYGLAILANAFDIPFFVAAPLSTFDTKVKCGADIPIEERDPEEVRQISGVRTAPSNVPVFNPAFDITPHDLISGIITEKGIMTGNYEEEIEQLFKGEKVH
UniProt P62620, sequence (whole entry, looked up): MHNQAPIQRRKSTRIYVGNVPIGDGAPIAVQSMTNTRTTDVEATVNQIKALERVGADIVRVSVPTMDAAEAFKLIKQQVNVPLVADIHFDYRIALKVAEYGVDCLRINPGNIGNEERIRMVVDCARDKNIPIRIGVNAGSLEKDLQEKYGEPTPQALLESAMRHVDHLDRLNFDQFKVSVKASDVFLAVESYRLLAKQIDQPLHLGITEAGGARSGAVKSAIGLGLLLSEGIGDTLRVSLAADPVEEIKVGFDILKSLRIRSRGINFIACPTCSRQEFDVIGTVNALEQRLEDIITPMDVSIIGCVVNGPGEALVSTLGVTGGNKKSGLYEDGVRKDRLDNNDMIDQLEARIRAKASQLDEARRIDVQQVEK
UniProt P09874, sequence (whole entry, looked up): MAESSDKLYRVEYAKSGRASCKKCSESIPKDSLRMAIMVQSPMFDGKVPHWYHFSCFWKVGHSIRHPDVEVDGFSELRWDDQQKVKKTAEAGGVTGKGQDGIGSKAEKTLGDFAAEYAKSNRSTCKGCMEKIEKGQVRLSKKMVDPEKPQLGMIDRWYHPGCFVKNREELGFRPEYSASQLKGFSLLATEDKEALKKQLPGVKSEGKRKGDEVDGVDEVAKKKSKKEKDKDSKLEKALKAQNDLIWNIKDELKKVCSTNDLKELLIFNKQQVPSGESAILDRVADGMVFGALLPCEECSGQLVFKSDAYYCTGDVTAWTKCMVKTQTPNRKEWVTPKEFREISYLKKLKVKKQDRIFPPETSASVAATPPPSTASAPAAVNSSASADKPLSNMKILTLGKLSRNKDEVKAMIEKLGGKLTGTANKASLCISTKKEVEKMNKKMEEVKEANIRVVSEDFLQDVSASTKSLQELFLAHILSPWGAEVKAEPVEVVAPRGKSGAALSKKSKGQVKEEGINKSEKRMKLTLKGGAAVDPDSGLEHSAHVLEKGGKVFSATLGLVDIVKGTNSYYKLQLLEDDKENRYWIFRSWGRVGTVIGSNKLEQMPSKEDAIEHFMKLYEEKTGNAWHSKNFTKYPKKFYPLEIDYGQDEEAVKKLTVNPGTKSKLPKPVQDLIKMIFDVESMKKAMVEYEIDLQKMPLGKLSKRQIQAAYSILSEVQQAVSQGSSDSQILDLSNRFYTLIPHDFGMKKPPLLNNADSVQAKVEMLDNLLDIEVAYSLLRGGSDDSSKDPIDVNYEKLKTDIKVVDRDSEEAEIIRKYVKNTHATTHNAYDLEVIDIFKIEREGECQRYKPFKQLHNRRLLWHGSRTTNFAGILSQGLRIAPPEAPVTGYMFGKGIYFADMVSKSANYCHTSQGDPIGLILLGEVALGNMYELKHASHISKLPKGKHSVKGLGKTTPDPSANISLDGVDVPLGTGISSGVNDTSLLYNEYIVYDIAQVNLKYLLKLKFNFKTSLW

The Km of `ispG (Escherichia coli, UniProt P62620)` is reported as 311 µM (C[C@@]1(CO)OP(=O)(O)OP(=O)(O)OC[C@H]1O).
With `B1` the Km was 1200 µM (N[C@@H](Cc1ccccc1)C(=O)O; pH 7.5, 25 °C, added: PMP 20 µM).
The Km of `B2 (SCO6712 S292F/Y229F)` is reported as 1500 µM (CCn1c(=NN=c2sc3cc(S(=O)(=O)O)ccc3n2CC)sc2cc(S(=O)(=O)O)ccc21; pH 7, 37 °C, NaCl 150 mM, added: O2 cosubstrate).
For `B3 (enzyme)`, the Km was 960 µM (CCn1c(=NN=c2sc3cc(S(=O)(=O)O)ccc3n2CC)sc2cc(S(=O)(=O)O)ccc21; pH 3.7, 24 °C).
For `B4 (proA)`, the Km was 290 µM (N[C@@H](CCC=O)C(=O)O; pH 7.6, apparent, added: 1 mM NADP+).
With `B5 (enzyme)` the Km was 4620 µM (O=[N+]([O-])c1ccc(O[C@@H]2O[C@H](CO)[C@@H](O)[C@H](O)[C@H]2O)cc1; pH 6.5, 30 °C).
The Km of `B6 (ST3GAL1 K315T)` is reported as 52.3 µM (CC(=O)N[C@H]1[C@H]([C@H](O)[C@H](O)CO)O[C@](OP(=O)(O)OC[C@H]2O[C@@H](n3ccc(N)nc3=O)[C@H](O)[C@@H]2O)(C(=O)O)C[C@@H]1O).
`mtnA (Bacillus subtilis, UniProt O31662)` has a Km of 9400 µM (O=P(O)(O)O[C@H]1O[C@H](CO)[C@@H](O)[C@H]1O; pH 7.5, 25 °C).
`B7 (enzyme)` gave a Km of 38.5 µM and 66.2 µM (O=C(O)C(=O)Cc1ccccc1).
With `enzyme (UniProt F0RRL2)` the Km was 25200 µM (O=P(O)(O)O[C@H]1O[C@H](CO)[C@@H](O)[C@H](O)[C@H]1O; pH 5.5, 37 °C, apparent).
The Km of `enzyme N248Y/Q325R/R246H/R328K (Arabidopsis thaliana, UniProt O24495)` is reported as 249 µM (C[C@@H](O)C(=O)SC[C@H](NC(=O)CC[C@H](N)C(=O)O)C(=O)NCC(=O)O; pH 7.2, 25 °C).
The Km of `B8 (enzyme)` is reported as 4540 µM (CC(=O)N[C@H]1[C@H](Oc2ccc([N+](=O)[O-])cc2)O[C@H](CO)[C@@H](O)[C@@H]1O[C@@H]1O[C@H](CO)[C@H](O)[C@H](O)[C@H]1O; pH 6, 40 °C).
The Km of `spt R378K (Sphingomonas paucimobilis)` is reported as 24 µM (CCCCCCCCCCCCCCCC(=O)SCCNC(=O)CCNC(=O)[C@H](O)C(C)(C)COP(=O)(O)OP(=O)(O)OC[C@H]1O[C@@H](n2cnc3c(N)ncnc32)[C@H](O)[C@@H]1OP(=O)(O)O; added: PLP).
With `B9 (UGT1A6)` the Km was 97 µM (O=c1cc(C(F)(F)F)c2ccc(O)cc2o1; 37 °C, not purified).
The Km of `PARP1 (Homo sapiens, UniProt P09874)` is reported as 8.62 µM (NC(=O)c1ccc[n+]([C@@H]2O[C@H](COP(=O)([O-])OP(=O)(O)OC[C@H]3O[C@@H](n4cnc5c(N)ncnc54)[C@H](O)[C@@H]3O)[C@@H](O)[C@H]2O)c1).
The Km of `B10 (GRHPR)` is reported as 253 µM (O=CC(=O)O; pH 7.5, 37 °C, apparent, added: NADPH 200 µM).
